Measurements from different studies.
Every numbered part comes from another study and shows a few of its results, in no order.

Block 1
Target: Sal-like protein 4, full length isoform B (SALL4, Homo sapiens, UniProt Q9UJQ4-2, residues 1-616)
Method: universal PBM
Molecule type: double-stranded DNA, one strand shown
Medium: in vitro
Concentration: not given
Notes: 8-mer, flanks averaged, mean of replicates
Direction: higher = stronger binding
| Strand | E-score |
| --- | --- |
| ATACAGTC | 0.169 |
| GAACGCTA | -0.0712 |
| AGAGATTC | 0.0567 |

Block 2
Target: Prothrombin, mature alpha-thrombin (F2, Homo sapiens, UniProt P00734)
Method: aptamer microarray, sandwich
Molecule type: DNA with 2'F-ANA
Medium: in vitro
Concentration: 200 nM
Notes: whole 15-mer aptamer, many near background
With: Cy3 exosite-II aptamer, 400 nM
Direction: higher = stronger binding
Strand: GGTTGGTGTGGTTGG
| Modification | mean fluorescence intensity [a.u.] |
| --- | --- |
| 2'F-ANA at 3 4 5 8 10 11 12 13 | 48.8 |
| 2'F-ANA at 3 4 6 7 9 13 | 391 |
| 2'F-ANA at 1 2 3 6 7 8 10 12 | 92.3 |
| 2'F-ANA at 5 6 8 9 10 | 42.9 |
| 2'F-ANA at 3 12 13 15 | 1310 |

Block 3
Target: Interferon regulatory factor 5, full length, phosphomimetic (IRF5, Homo sapiens, UniProt Q13568-2, residues 1-514, K96S/S451D/S453D/S456D/S462D)
Method: protein-binding microarray
Molecule type: double-stranded DNA, one strand shown
Medium: in vitro
Concentration: 250 nM
Notes: 60-bp whole probe
With: salmon DNA 0.4 mg/ml
Baseline: random background probes
Direction: higher = stronger binding
| Strand | log fluorescence |
| --- | --- |
| GCCTAGCACGACGGACTGAGGTATCGGGACGTGCTAGTCTTGATTCGCTTGACGCTGCTG | -0.063 z-score |
| GCCTAGCACCTGATCCTTCATTTGAAAGAGTGCTAGGTCTTGATTCGCTTGACGCTGCTG | 0.196 z-score |
| GCCTAGCACACCTAATTCACTATTACCAAGTGCTAGGTCTTGATTCGCTTGACGCTGCTG | 0.426 z-score |
| GCCTAGCACGACGGTCCCGGTATCGGGACGTGCTAGGTCTTGATTCGCTTGACGCTGCTG | 0.523 z-score |

Other studies, line by line
| Molecule | target | assay | system | setting | scale | endpoint | result |
| --- | --- | --- | --- | --- | --- | --- | --- |
| PhoQ, residues 284 288 289 292 302 303 SLSLLA | PhoP, residues 12 14 15 18 19 NNFVT (Escherichia coli, UniProt P23836) | Sort-seq, item: YFP reporter | E. coli | PhoQ-PhoP variant library, with: 10 µM Mg2+ | baseline: high Mg2+ state, higher = stronger signaling | fold induction | 13.3 |

Repeated from above (other studies, line by line):
| Molecule | target | assay | system | setting | scale | endpoint | result |
| --- | --- | --- | --- | --- | --- | --- | --- |
| PhoQ, residues 284 288 289 292 302 303 SLSLLA | PhoP, residues 12 14 15 18 19 NNFVT (Escherichia coli, UniProt P23836) | Sort-seq, item: YFP reporter | E. coli | PhoQ-PhoP variant library, with: 10 µM Mg2+ | baseline: high Mg2+ state, higher = stronger signaling | fold induction | 13.3 |
